# Assay results pooled from the literature.
# Lines come from different studies, so protocols differ.
# ALK L1196M: ALK tyrosine kinase receptor (ALK, Homo sapiens, UniProt Q9UM73, L1196M)
# ALK: ALK tyrosine kinase receptor (ALK, Homo sapiens, UniProt Q9UM73)
Structure (SMILES),target,test,conditions,how to read,remaining binding [%]
Cc1cnc2nc1Nc1cccc(c1)COC/C=C/COCc1cc(ccc1OCCN1CCOCC1)N2,ALK L1196M,binding,0.1 µM,,92
CNC(=O)C1CCN(c2cc(C)c(F)cc2NC(=O)c2ccc(-c3cc(O)ccc3C)c(C)c2)CC1,ALK,"binding, competition with immobilised ligand",1 µM,,93
COc1c(Cl)cccc1Nc1c(-c2ccncc2C#C[C@@]2(C)CCCN2C(=O)/C=C/CN(C)C)[nH]c2c1C(=O)NCC2,ALK,"cell-free assay, competition with immobilised ligand",3 µM,,71
CNC1C[S+]2CC[S+]3CC[S+](C1)[Ru-4]321([N]=C=S)[n]2c3ccc(OC)cc3c3c4c(c5cc(F)c[n+]1c5c32)C(=O)NC4=O (centres unmarked),ALK,KinomeScan,0.1 µM,baseline: untreated,95
C=CC(=O)N1CCCC(n2c(=O)c3ncccc3n(Cc3ccc(Oc4ccccc4)cc3)c2=O)C1 (centres unmarked),ALK,"cell-free assay, competition with immobilised ligand",1 µM,,42
Nc1ncc2c(n1)-c1c([nH]c3ccc(C4=CCOCC4)cc13)CCC2,ALK L1196M,"binding, competition with immobilised ligand",1 µM,,100
CC(C)=CC1OC(C)(C)C2C=C3C(=O)C(Cl)=CC(O)C3C3C(O)C4OC4C(=O)C132 (centres unmarked),ALK L1196M,"cell-free assay, competition with immobilised ligand",10 µM,,71
C=CC(=O)N1CCc2ccc(-n3c(=O)ccc4cnc5ccc(-c6cnn(C)c6)cc5c43)cc21,ALK L1196M,KINOMEscan,1 µM,baseline: DMSO control,100
